Measured values collected from several papers.
Parts stem from different laboratories: compare values within a part only. Substitutions count along the parent as printed.

Sample 1 — method: RNA Bind-n-Seq; molecule type: RNA; matrix: in vitro; concentration: 365 nM; baseline: no-protein control; reading: higher = stronger binding; quantity: RBNS enrichment (R)
Target: RNA binding protein fox-1 homolog 2, RRM domain, GST-SBP tag (RBFOX2, Homo sapiens, UniProt O43251-10, residues 100-194)
Setting: natural RNA segment, single round, ends assumed
Constant ends, left off below: GGGAGUUCUACAGUCCGACGAUC … UGGAAUUCUCGGGUGCCAA
Construct (chain): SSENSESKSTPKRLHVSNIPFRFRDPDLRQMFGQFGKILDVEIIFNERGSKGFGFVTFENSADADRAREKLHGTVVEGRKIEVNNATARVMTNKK
UCGCAAGAAGAGAUUUGGGCUUAACACUGGGUACUUUGUGGGUCUCUUUUGUGGAUGGCUUCAAGUAACAUCUAUUUCCAUUGAUCCUAGGUUCUUACUGACUGCUUUCU: 0.215
UGAUGUAUCUUCAUUGUCAUCUCUCAUCCUGAUGUGUGCCAGUUAGAGGACUGUCUGGUAUCCAAGACGACUAGUGUAUGUCAGGUCCUCAAAUCACCAACAGCUUGUUA: 1.37
UCCACAACUACUGCCAUACCCUGUGUUGUAUCAUUUGACCAGGAGGGAAACCUUGAAUUGGGGUGUGUUCUCUAAUCACUUUCCACUGUCUGAGCUUUCCUGACCCCUGU: 0.358
AGUUUUCUUUUUAAGAAUCAUGCCAGAGCCUGAGUCGAGCAGUAUGCUUUCUUGGUUUUUGAGAGUAAUUGUGUAAUUGUAGAGGGAGAAAUCCAAUUCUAACCUAAGAA: 0.647
ACGGAUUGUUCAGCUUCAGACUGACAAAUGCCUUUCUCACAAGUUCCUGCUUCUUGCCGUGAUACUGUGCCCCAGAACAGCCUGGGGUCCCUGCUAGUUCCUGUCAAGGC: 0.657
UCAGGCAGUAGAAACAUUGCCAGAAGGAUAGAAAGGAAUUUGGAUUAUAUAUAAGGAAAAUAACAAAUCGGUGUUUUUAAGACUAUCACUGUCAUAUAUUAGAUCCUUGU: 0.37
UUCACUAACUUAUACUUGUCUAUCUAGAAUACAGGUCUUCCAGUCAGCUGGUCAUUUACCAGGUGUGGACUUAAGUUGCUAGGCUUGCAGUAAGAAUUGCCAGCCACUCA: 0.343
UUUUUGGAAAUGUAGCAUUUUAUACUUUCAAGUGUUAUAAAAAAAAAGAAAAAGAACAAAGAAACCCUUUAUUUCAUUAAAUGAUUUUUUCUGGUGGUUGUCAAGAAACA: 1.04
UGGACACCCAUCUCAACAGGGUCACUUGGUAAUUAACAAUAGCCAUAUAAAUGCGGAUACAGGUUACUACCCUCACCCUUUACCUUCCUCAGGUAACAGUCGUAGAUACC: 0.334
CCCUUUGUGAGUGUCUCAGUCUAGAGGUACCUCCCUCCCUGGGGGGUCUCAGCUCCUGGAGUCGCAGGCCCUUGGGGCCCCUCUGUGAGAUCUCAAUGCUGUCUGGGGAC: 0.417
AGUGAAUUUUUAAUGCUGAAGAUAAAGUAAGCUAAAGUACCAGCAGAAGCCUUGGCUAUUUAUAGCAGUUCUGACAAUAGUUUUAUAAGAACAUGAAGAGAACAGAAUCA: 0.597
UGCACUGAACGCUCUGCUCAGACAGGCCUUUCAUGAAGAGAAGAGUGGGGGAGAGGAUGCAGGGGGGCCCACCCCCACCCCCACAGCUGCCACAGCAUCUCACACCCCAG: 1.01

Sample 2 — method: protein binding microarray; molecule type: double-stranded DNA, one strand shown; matrix: in vitro; concentration: not given; baseline: not given; reading: higher = stronger binding; quantity: E-score
Target: Histone acetyltransferase KAT6A, winged helix 2, GST fusion (KAT6A, Homo sapiens, UniProt Q92794, residues 85-181)
Setting: 8-mer, flanks averaged, mean of 2 arrays, mostly near background
Residues (chain): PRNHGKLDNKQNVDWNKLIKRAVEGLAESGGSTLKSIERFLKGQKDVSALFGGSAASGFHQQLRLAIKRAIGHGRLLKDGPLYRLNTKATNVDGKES
GAAGGCGA: 0.0641
GAGGCAGC: -0.109
CCAGTCAG: -0.139
AGCTCAGG: 0.0965
AAGGGTGA: 0.000725
ACTCGGCA: 0.131
ACCCCCGG: -0.128
CATGAAGA: 0.0609
AGATATGA: 0.124
AAGAGGAG: 0.0857
GAAGTGGA: 0.0704
CCGTGCGA: 0.208
CATGTTGC: 0.0208
GCTCAGTA: 0.0742
ATCATGCC: -0.0662
GACAATAA: -0.0846
CCGGTAAG: 0.11
TGACTTAA: 0.0266
TCCTAGCA: -0.17
TCCAAAAA: 0.0548
GGGAGAAA: 0.00407
GAATATGA: -0.0865
CTGATCTA: -0.0442
TCAGACGA: -0.102
CATTGTAA: -0.13

Sample 3 — target: CCND3, cyclin fold, Cln2 fusion (human); method: yeast growth competition, sequencing; matrix: yeast; setting: weak parent motif; baseline: not given; reading: higher = stronger binding; quantity: normalised enrichment score
Starting sequence: CDC25A docking peptide (human); PPHRRRLLFACSP; partner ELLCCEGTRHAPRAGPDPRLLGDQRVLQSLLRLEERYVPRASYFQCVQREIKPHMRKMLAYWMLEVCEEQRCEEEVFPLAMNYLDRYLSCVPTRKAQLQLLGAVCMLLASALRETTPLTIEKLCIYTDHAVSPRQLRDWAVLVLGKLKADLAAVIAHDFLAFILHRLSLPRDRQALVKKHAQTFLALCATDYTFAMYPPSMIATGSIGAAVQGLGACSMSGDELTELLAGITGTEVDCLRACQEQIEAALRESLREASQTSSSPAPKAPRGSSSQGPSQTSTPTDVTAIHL
R5A R6A L7A L8A: 0.089
L8K: 0.201
C11Q: 0.126
L7W: 0.139
R4Y: 0.0653
L8E: 0.0893
R4H: 0.0781
H3W: 0.145
P1R: 0.198
R4I: 0.155
R6D: 0.104
F9S: 0.2
A10P: 0.121
S12Q: 0.0755
C11K: 0.0274
P1N: 0.143
H3V: 0.113
C11N: 0.0175
H3E: 0.0854
L8W: 0.144
A10L: -0.0409
C11F: 0.163

Sample 4 — method: aptamer microarray, sandwich; molecule type: DNA with 2'F-ANA; matrix: in vitro; concentration: 200 nM; added: Cy3 exosite-II aptamer, 400 nM; reading: higher = stronger binding; quantity: mean fluorescence intensity; strand: GGTTGGTGTGGTTGG
Target: Prothrombin, mature alpha-thrombin (F2, Homo sapiens, UniProt P00734)
Setting: whole 15-mer aptamer, many near background
2'F-ANA at 2 5 7 8 9 11 14: 57.6 a.u.
2'F-ANA at 2 4 5 7 8 11 13 14 15: 48.8 a.u.
2'F-ANA at 1 3 4 6 9 10 13: 56.4 a.u.
2'F-ANA at 2 4 6 8 10 12 13: 107 a.u.
2'F-ANA at 3 7 9 12 13 14 15: 615 a.u.
2'F-ANA at 5 6 11 14: 41.7 a.u.
2'F-ANA at 1 2 3 5 8 10 13 14 15: 61.2 a.u.
2'F-ANA at 1 2 4 6 8 9 12 13: 164 a.u.
2'F-ANA at 2 3 5 6 7 8 9 13 14 15: 59.8 a.u.
2'F-ANA at 1 2 3 4 6 7 8 9 10 11 13: 57.8 a.u.
2'F-ANA at 1 3 5 8 14 15: 45.5 a.u.
2'F-ANA at 2 3 4 5 8 10 14: 46.5 a.u.
2'F-ANA at 4 7 8 10 12 15: 223 a.u.
2'F-ANA at 3 7 8 12 14: 834 a.u.
2'F-ANA at 2 4 5 7 11: 60 a.u.
2'F-ANA at 2 3 4 5 8 10 11 12 13 14: 72.3 a.u.
2'F-ANA at 2 3 5 9 10 11 12 14 15: 70.2 a.u.
2'F-ANA at 1 4 6 8 10 11 12 13 14 15: 51.3 a.u.
2'F-ANA at 1 5 7 11 14: 43.5 a.u.
2'F-ANA at 1 3 4 5 6 7 9 11 12 13 15: 87.1 a.u.
2'F-ANA at 2 3 4 7 8 11 12 13 15: 692 a.u.
2'F-ANA at 1 4 7 8 14: 58.3 a.u.
2'F-ANA at 1 2 3 4 5 9 11 12 13 14 15: 57.1 a.u.
2'F-ANA at 1 2 3 7 10 12 13: 88.7 a.u.
2'F-ANA at 3 8 9 11 13 14 15: 484 a.u.

Sample 5 — method: protein-binding microarray; molecule type: double-stranded DNA, one strand shown; matrix: in vitro; concentration: 940 nM top; setting: 60-bp whole probe; added: salmon DNA 0.4 mg/ml; baseline: random background probes; reading: higher = stronger binding; quantity: fitted relative affinity; constant ends, left off below: GCCTAGCAC … GTCTTGATTCGCTTGACGCTGCTG
Target: Interferon regulatory factor 5, full length, phosphomimetic (IRF5, Homo sapiens, UniProt Q13568-2, residues 1-514, S451D/S453D/S456D/S462D)
CTCCCTTTCTCTCTGTGACAGTGCTAG: 1.81 z-score
TCATCCCTCGGGTTGCGGACTGTGCTA: -0.421 z-score
TTTTTTTTCTACTTCTGTTTGTGCTAG: 1.75 z-score
AGCAGGGGCGCAGGTAGGTGGTGCTAG: -0.696 z-score
TTAGGCCTGGGTATCGGTTAGTGCTAG: 3.38 z-score
GACGGTATAGACTATCGGGACGTGCTA: -0.28 z-score
TTATGTTTCCTTATCCTTTAGTGCTAG: 2.01 z-score
TTCGGTTTCGGTTCCGGTTAGTGCTAG: 15.2 z-score
GACGTACTGGGACTGGGGACGTGCTAG: -0.594 z-score
TTAGATTTCAGTTTCGATGAGTGCTAG: 7.76 z-score
GACGGTCTCGGTCACGGGACGTGCTAG: 3.6 z-score
TTAGGTTTCGGGACTGGGGTAGTGCTA: 8.54 z-score
TTAGGTTCCGGTTTCGCTTAGTGCTAG: 6.67 z-score
TTAGGTCTCGGTATCTGTTAGTGCTAG: 4.93 z-score
TTAGGAATCGGGACTGGGTTAGTGCTA: -0.0888 z-score
GTAGATTTCGGGTATCGATTAGTGCTA: 3.75 z-score
